Measurements from different studies.
Each line is one published result; not all experiments were run side by side. Numbers after ± are the reported error.

`C[C@@H](O)[C@H](NC(=O)[C@@H](NC(=O)[C@@H](N)CCCCN)[C@@H](C)O)C(=O)N[C@@H](CCCCN)C(=O)N[C@@H](CO)C(=O)O` gave a remaining compound of 1.5% (LC-MS/MS; hairless mouse skin homogenate; 40 µg/mL, 60 min, pH 7.4, 37 °C).
Under “remaining intact peptide”, `C[C@@H]1NC(=O)CNC(=O)c2ccc(cc2)S(=O)(=O)Oc2ccc(cc2)C[C@@H](C(N)=O)NC(=O)CNC1=O` is recorded as 90% (PBS; 1 mg/mL, 24 h, pH 9, 65 °C).
For `CCCC1OC2CC3C4CCC5=CC(=O)C=CC5(C)C4C(O)CC3(C)C2(C(=O)COC(=O)CN(C)C)O1` (centres unmarked), the remaining conjugate was 88.5% (aqueous buffer; 200 µg/mL, 48 h, pH 1.2, 37 °C).
With `COc1c2c(cc3oc(COC4OC(CO)C(O)C(O)C4O)cc(=O)c13)OC(C(C)(C)O)C2` (centres unmarked) the remaining concentration was 0.38 nmol/mL (simulated intestinal fluid with pancreatin; 213.47 nmol/L, 2 h, pH 6.8, 37 °C).
For `C=CC(=O)Nc1cc(Nc2nccc(-c3cn(C)c4ccccc34)n2)c(OCC(F)(F)F)nc1NCCN(C)C`, “remaining parent compound” read 58% (LC-MS; human liver microsomes; 3 µM, 60 min, added: ticlopidine 24 µM; relative to: no inhibitor).
`CCCC(CCC)NC(=O)c1ccc(OC)c(O)c1`: “remaining parent compound” 100% (rat liver microsomes; 1.0 µM, 0 min, pH 7.4).
Under “remaining parent compound”, `C=CC(=O)Nc1cc(Nc2nccc(-c3cn(C)c4ccccc34)n2)c(OCC(F)(F)F)nc1N(C)CCNC` is recorded as 55% (LC-MS; human liver microsomes; 3 µM, 60 min, added: sulfaphenazole 6 µM; relative to: no inhibitor).
`CNC(=O)c1ccc(N2CCN(Cc3ccc4nc(C)c(=O)[nH]c4c3F)CC2)c([18F])n1` — result for “remaining intact tracer”: over 95% (rat plasma; 90 min).
For `CC[C@H](C)[C@H](NC(=O)CNC(=O)CNC(=O)c1ccc2c(c1)C(=O)OC21c2ccc(O)cc2Oc2cc(O)ccc21)C(=O)N[C@@H](Cc1ccc(O)cc1)C(=O)N[C@@H](C)C(=O)N(C)[C@@H](C)C(=O)N1CCC[C@H]1C(=O)N(C)[C@@H](Cc1ccccc1)C(=O)N[C@@H](CCCCN)C(=O)N[C@@H](CCCCN)C(=O)N[C@@H](CCCCN)C(=O)N[C@@H](C)C(N)=O`, the remaining peptide was 22 ± 8% (CE-LIF; Baf/BCR-ABL cytosolic lysate; 1 µM, 60 min, 37 °C).
`O=C([O-])CN1CCN(CC(=O)[O-])CCN(CC(=O)[O-])C(Cc2ccc(NC(=S)NCCc3ccc4c(c3)C3C=CCC3C(c3cc5c(cc3Br)OCO5)N4)cc2)CN(CC(=O)[O-])CC1.[111In+3]` (centres unmarked) — result for “remaining intact compound”: over 90% (PBS; up to 4 days, pH 7.4, 37 °C, In(III) complex).
For `COc1ccc2[nH]cc(C[C@H](NC(=O)CCN)C(=O)N[C@@H](Cc3ccc(Cl)cc3)C(=O)N[C@@H](Cc3ccncc3)C(N)=O)c2c1`, the remaining binding was about 80% (EphA4-ephrin-A5 binding, antagonist, ELISA; mouse serum; concentration not given, 24 h, 37 °C).
`NC12CNCCNCC(NCc3ccc(CNC(=O)CCCC(=O)NCc4ccc(-c5nncnn5)cc4)cc3)(CNCCNC1)CNCCNC2.[64Cu+2]` — result for “remaining intact compound”: 93.3 ± 0.5% (PBS; 4 h, pH 7.4, 37 °C).
`CC(C)(O)[C@H]1Cc2cc3ccc(=O)oc3cc2O1` has a remaining analyte of 96.8 ± 6.3% (spiked rat plasma QC samples; 0.1, 0.5, 5.0 µg/mL, 12 h, room temperature).
For `CN(Cc1ccc(F)cc1)Cc1cc(=O)oc2cc(O)ccc12`, “remaining intact compound” read over 99% (human serum; 0.5 mM, 30 min).
`COc1cc(NC(C)=O)c2c(c1O)-c1c(OC)c(OC)cc3c1C(C2)N(C)CC3` (centres unmarked) gave a remaining compound of 89.4 ± 2.3% (rat heart homogenate; 50 µg/mL, 4 h, room temperature, short-term storage).
For `C=CC(=O)Nc1cc(Nc2nccc(-c3cn(C)c4ccccc34)n2)c(O)nc1N(C)CCN(C)C`, “remaining parent compound” read 31% (LC-MS; human liver microsomes; 3 µM, 60 min, added: quercetin 20 µM; relative to: no inhibitor).
With `N[C@@H](CC(=O)O)C(=O)N1CCC[C@H]1C(=O)NCC(=O)NCC(=O)O` the remaining peptide was about 33% (diketopiperazine formation, ESI-MS; 1-propanol; 5 µM, 90 min, 70 °C, 0.5% acetic acid; relative to: initial signal).
Under “remaining parent compound”, `Cn1cc(-c2ccnc(N)n2)c2ccccc21` is recorded as 70% (LC-MS; human liver microsomes; 3 µM, 60 min, added: quercetin 20 µM; relative to: no inhibitor).
`COC(=O)c1ccc2c(c1)NC(=O)/C2=C(\Nc1ccc2c(c1)CCN2C(=O)CN1CCOCC1)c1ccccc1` gave a remaining compound of 109% (human plasma; 1 µM, 4 h, 37 °C).
For `C=CC(=O)Nc1cc(Nc2nccc(-c3cn(C)c4ccccc34)n2)c(OCC(F)(F)F)nc1N(C)CCN(C)C`, “remaining parent compound” read 58% (LC-MS; human liver microsomes; 3 µM, 60 min, added: sulfaphenazole 6 µM; relative to: no inhibitor).
The remaining compound of `CSCC(NC(=O)c1cc(Cl)ccc1Cl)C(=O)NC(CC(C)C)B(O)O` (centres unmarked) is reported as 68 ± 1.37% (dog liver microsomes; 3 µM, 60 min, pH 7.4, added: NADPH).
`C=CC(=O)Nc1cc(Nc2nccc(-c3cn(C)c4ccccc34)n2)c(OCC(F)(F)F)nc1NC` — result for “remaining parent compound”: 62% (LC-MS; human liver microsomes; 3 µM, 60 min, added: ticlopidine 24 µM; relative to: no inhibitor).
For `CC[C@H](C)[C@H](N)C(=O)N1CCC[C@H]1C(=O)NCC(=O)NCC(=O)O`, the remaining peptide was about 74% (diketopiperazine formation, ESI-MS; 1-propanol; 5 µM, 90 min, 70 °C, 0.5% acetic acid; relative to: initial signal).

Some of these lines once more:
`C[C@@H](O)[C@H](NC(=O)[C@@H](NC(=O)[C@@H](N)CCCCN)[C@@H](C)O)C(=O)N[C@@H](CCCCN)C(=O)N[C@@H](CO)C(=O)O` gave a remaining compound of 1.5% (LC-MS/MS; hairless mouse skin homogenate; 40 µg/mL, 60 min, pH 7.4, 37 °C).
